# Results collected from several papers.
# Protocols differ between the studies behind these lines.
# Organism: Pseudomonas aeruginosa
Compound,assay,system,conditions,how to read,MIC
CC[C@H](C)[C@H](NC(=O)[C@H](CC(C)C)NC(=O)[C@H](CCCCN)NC(=O)[C@@H](NC(=O)[C@H](C)NC(=O)[C@H](CCC(=O)O)NC(=O)[C@H](Cc1c[nH]cn1)NC(=O)[C@@H](NC(=O)[C@H](CCCCN)NC(=O)[C@H](CCC(N)=O)NC(=O)[C@H](Cc1ccccc1)NC(=O)[C@@H](NC(=O)[C@H](CCCCN)NC(=O)[C@@H](N)CCCCN)C(C)C)[C@@H](C)CC)[C@@H](C)CC)C(N)=O,CLSI broth microdilution,ATCC 27853,"18 h, 37 °C",,32 µM
CN1C(=O)Cc2ccc(F)c(CCNCC[C@H]3CN(c4ccc5c(n4)NC(=O)CO5)C(=O)O3)c21,,ATCC 27853,,,0.5 µg/mL
CC[C@H](C)[C@H](NC(=O)[C@H](CC(C)C)NC(=O)[C@H](CCCNC(=N)N)NC(=O)[C@@H](N)CCCNC(=N)N)C(=O)N[C@@H](CCCNC(=N)N)C(=O)N[C@H](C(=O)N[C@@H](CCCCN)C(=O)N[C@H](C(=O)NCC(=O)N1CCC[C@H]1C(=O)N[C@H](C(=O)N[C@H](C(=O)N[C@@H](Cc1ccc(O)cc1)C(=O)N[C@@H](CCCCN)C(=O)N[C@@H](Cc1ccc(O)cc1)C(=O)N[C@@H](Cc1ccccc1)C(=O)N[C@@H](CCCCN)C(=O)N[C@@H](CCCCN)C(=O)N[C@@H](CCC(N)=O)C(=O)N[C@@H](CC(C)C)C(=O)N[C@@H](CC(C)C)C(=O)N[C@@H](CCCCN)C(=O)N[C@@H](CCCCN)C(N)=O)[C@@H](C)CC)[C@@H](C)CC)[C@@H](C)O)[C@@H](C)O,,"KCTC 1637, Mueller-Hinton broth",24 h,,4 µM
CC[C@H](C)[C@H](NC(=O)[C@H](CCCCN)NC(=O)[C@H](Cc1c[nH]c2ccccc12)NC(=O)[C@H](Cc1c[nH]c2ccccc12)NC(=O)[C@H](CCCCN)NC(=O)[C@H](CCCCN)NC(=O)[C@H](CCCCN)NC(=O)[C@H](Cc1c[nH]c2ccccc12)NC(=O)[C@H](CCCCN)NC(=O)[C@H](CCCCN)NC(=O)[C@H](Cc1c[nH]c2ccccc12)NC(=O)[C@H](CCCCN)NC(=O)[C@H](CCCCN)NC(=O)[C@@H](NC(=O)[C@@H](NC(=O)[C@H](CCCCN)NC(=O)[C@@H](N)CCCNC(=N)N)[C@@H](C)CC)[C@@H](C)CC)C(=O)N[C@@H](Cc1c[nH]c2ccccc12)C(=O)N[C@@H](Cc1c[nH]c2ccccc12)C(=O)N[C@@H](CCCCN)C(=O)NCCOCCOCC(N)=O,broth microdilution,10145,,,1.9 µg/mL
C[C@H]1COc2c(N3CCN(C)CC3)c(F)cc3c(=O)c(C(=O)O)cn1c23,,"1191191, multidrug-resistant",,,2 µg/mL
CC(C)CC1NC(=O)C(C(=O)NC(C(=O)NC2C(=O)N3C2SC(C)(C)C3C(=O)O)c2ccccc2)=C1O (centres unmarked),,fptA mutant,,,25 µg/mL
CC[C@H](C)[C@H](NC(=O)CNC(=O)[C@H](CC(=O)O)NC(=O)[C@H](CCCNC(=N)N)NC(=O)[C@@H](NC(=O)[C@H](CC(N)=O)NC(=O)[C@H](CCCNC(=N)N)NC(=O)CNC(=O)[C@@H](NC(=O)[C@H](CCCCN)NC(=O)[C@H](CCCNC(=N)N)NC(=O)[C@@H](NC(=O)[C@H](CCCCN)NC(=O)[C@H](CCCCN)NC(=O)[C@H](Cc1ccccc1)NC(=O)[C@@H](NC(=O)[C@H](CCCCN)NC(=O)[C@H](Cc1c[nH]c2ccccc12)NC(=O)[C@@H](N)CCCNC(=N)N)[C@@H](C)CC)[C@@H](C)CC)C(C)C)C(C)C)C(=O)N[C@H](C(=O)N[C@@H](CCCCN)C(=O)N[C@@H](C)C(=O)NCC(=O)N1CCC[C@H]1C(=O)N[C@@H](C)C(=O)N[C@H](C(=O)N[C@@H](C)C(=O)N[C@H](C(=O)N[C@H](C(=O)NCC(=O)N[C@@H](CCC(N)=O)C(=O)N[C@@H](C)C(=O)N[C@@H](C)C(=O)N[C@H](C(=O)N[C@H](C(=O)N[C@H](C(=O)N[C@@H](CCCCN)C(N)=O)C(C)C)C(C)C)[C@@H](C)O)C(C)C)C(C)C)C(C)C)[C@@H](C)CC,,"KCCM 11328, Mueller-Hinton broth","16 h, 37 °C",growth inhibition over 99%,2 µM
CC[C@H](C)[C@H](NC(=O)[C@H](Cc1ccc(O)cc1)NC(=O)[C@@H](NC(=O)[C@H](Cc1ccc(O)cc1)NC(=O)[C@@H]1CCCN1C(=O)[C@@H](NC(=O)[C@H](C)N)[C@@H](C)CC)[C@@H](C)CC)C(=O)N[C@@H](Cc1c[nH]c2ccccc12)C(=O)N[C@@H](CCCNC(=N)N)C(=O)N[C@@H](CC(C)C)C(=O)N[C@@H](CC(C)C)C(=O)N[C@@H](CCCNC(=N)N)C(=O)N[C@@H](CCCCN)C(=O)NCC(=O)O,broth microdilution,PAO1,"18 h, 37 °C",,> 15 µM
CC[C@H](C)[C@H](NC(=O)[C@H](Cc1c[nH]c2ccccc12)NC(=O)[C@@H](NC(=O)[C@@H](NC(=O)[C@@H](NC(=O)[C@H](CCCNC(=N)N)NC(=O)[C@@H](N)CCCNC(=N)N)[C@@H](C)CC)[C@@H](C)O)[C@@H](C)CC)C(=O)N[C@H](C(=O)N[C@H](C(=O)N[C@@H](CCCNC(=N)N)C(=O)N[C@@H](CCCNC(=N)N)C(N)=O)[C@@H](C)CC)[C@@H](C)O,broth microdilution,"27853, Mueller-Hinton broth","24 h, 37 °C, lowest concentration, 95% inhibition, added: BSA",,128 µM
CC(C)C[C@H](NC(=O)[C@@H](NC(=O)[C@H](CCCNC(=N)N)NC(=O)[C@H](CCC(N)=O)NC(=O)[C@H](Cc1ccccc1)NC(=O)[C@H](Cc1ccc(O)cc1)NC(=O)[C@H](CC(N)=O)NC(=O)[C@H](Cc1c[nH]c2ccccc12)NC(=O)[C@@H](NC(=O)[C@H](CCCNC(=N)N)NC(=O)[C@H](CCCCN)NC(=O)[C@@H](N)Cc1ccccc1)C(C)C)C(C)C)C(=O)N[C@H](C(=O)N[C@@H](CCCCN)C(=O)N[C@@H](CCCCN)C(N)=O)C(C)C,broth dilution,ATCC 27853,,,100 µM
CC1(C)SC2C(NC(=O)C(NC(=O)C3=C(O)CN(c4ccccc4)C3=O)c3ccccc3)C(=O)N2C1C(=O)O (centres unmarked),,fptA mutant,,,50 µg/mL
N=C(N)NCCC[C@H](NC(=O)[C@H](Cc1c[nH]c2ccccc12)NC(=O)[C@@H](N)CCCNC(=N)N)C(=O)N[C@@H](Cc1c[nH]c2ccccc12)C(=O)N[C@@H](Cc1ccccc1)C(=O)N[C@@H](CCC(N)=O)C(=O)N[C@@H](Cc1ccccc1)C(=O)N[C@@H](CCC(N)=O)C(=O)N[C@@H](Cc1ccccc1)C(=O)N[C@@H](CCCCN)C(N)=O,"broth microdilution, optical density",,,,280 µM
CC(C)C1NC(=O)C(C(=O)NC(C(=O)NC2C(=O)N3C2SC(C)(C)C3C(=O)O)c2ccccc2)=C1O (centres unmarked),,fpvA mutant,,,100 µg/mL
CC[C@H](C)[C@H](NC(=O)CNC(=O)[C@H](C)NC(=O)[C@@H](NC(=O)[C@@H](NC(=O)[C@@H](NC(=O)[C@H](CCCNC(=N)N)NC(=O)[C@@H](NC(=O)[C@@H](NC(=O)[C@@H](NC(=O)[C@@H]1CCCN1C(=O)[C@H](Cc1c[nH]c2ccccc12)NC(=O)[C@@H](NC(=O)[C@H](CCCNC(=N)N)NC(=O)[C@H](CCCCN)NC(=O)[C@@H](NC(=O)[C@@H](N)CCCNC(=N)N)[C@@H](C)CC)C(C)C)C(C)C)C(C)C)[C@@H](C)CC)[C@@H](C)O)C(C)C)C(C)C)C(=O)N[C@@H](CC(N)=O)C(=O)N[C@@H](CC(C)C)C(=O)N[C@@H](Cc1ccc(O)cc1)C(=O)N[C@@H](CCCNC(=N)N)C(=O)N[C@@H](C)C(=O)N[C@H](C(=O)N[C@@H](CCCCN)C(=O)N[C@@H](CCCNC(=N)N)C(=O)N[C@@H](CCCCN)C(=O)O)[C@@H](C)CC,broth microdilution,"ATCC 27853, Mueller-Hinton broth","16 to 20 h, 37 °C",,2.83 µM
CC1NC(=O)C(C(=O)NC(C(=O)NC2C(=O)N3C2SC(C)(C)C3C(=O)O)c2ccccc2)=C1O (centres unmarked),,fptA mutant,,,25 µg/mL
CC[C@H](C)[C@H](NC(=O)CNC(=O)[C@H](CC(=O)O)NC(=O)[C@H](CCCNC(=N)N)NC(=O)[C@@H](NC(=O)[C@H](CC(N)=O)NC(=O)[C@H](CCCNC(=N)N)NC(=O)CNC(=O)[C@@H](NC(=O)[C@H](CCC(=O)O)NC(=O)[C@H](CCC(=O)O)NC(=O)[C@@H](NC(=O)[C@H](CCCCN)NC(=O)[C@H](CCCCN)NC(=O)[C@H](Cc1ccccc1)NC(=O)[C@@H](NC(=O)[C@H](CCCCN)NC(=O)[C@H](Cc1c[nH]c2ccccc12)NC(=O)[C@@H](N)CCCNC(=N)N)[C@@H](C)CC)[C@@H](C)CC)C(C)C)C(C)C)C(=O)N[C@H](C(=O)N[C@@H](CCCCN)C(=O)N[C@@H](C)C(=O)NCC(=O)N1CCC[C@H]1C(=O)N[C@@H](C)C(=O)N[C@H](C(=O)N[C@@H](C)C(=O)N[C@H](C(=O)N[C@H](C(=O)NCC(=O)N[C@@H](CCC(N)=O)C(=O)N[C@@H](C)C(=O)N[C@@H](C)C(=O)N[C@H](C(=O)N[C@H](C(=O)N[C@H](C(=O)N[C@@H](CCCCN)C(N)=O)C(C)C)C(C)C)[C@@H](C)O)C(C)C)C(C)C)C(C)C)[C@@H](C)CC,,"KCCM 11328, Mueller-Hinton broth","16 h, 37 °C",growth inhibition over 99%,32 µM
CC1(C)S[C@@H]2[C@H](NC(=O)[C@H](N)c3ccccc3)C(=O)N2[C@H]1C(=O)O,,pvdA mutant,,,200 µg/mL
CC[C@H](C)[C@H](NC(=O)[C@H](CC(C)C)NC(=O)[C@H](CC(C)C)NC(=O)[C@H](CC(C)C)NC(=O)[C@@H](NC(=O)[C@@H](NC(=O)[C@H](CCCCN)NC(=O)[C@H](CCCCN)NC(=O)[C@H](CCCCN)NC(=O)[C@H](CCCCN)NC(=O)[C@H](CC(C)C)NC(=O)[C@H](CCCNC(=N)N)NC(=O)[C@H](CO)NC(=O)[C@@H](N)CO)[C@@H](C)CC)C(C)C)C(=O)N[C@@H](CO)C(=O)N[C@@H](CCCCN)C(=O)N[C@@H](CCCCN)C(=O)N[C@@H](CCCCN)C(=O)N[C@@H](CCCCN)C(N)=O,broth microdilution,ATCC 27853,highest value reported,,32 µM
CC(C)(C)OCC1NC(=O)C(C(=O)NC(C(=O)NC2C(=O)N3C2SC(C)(C)C3C(=O)O)c2ccccc2)=C1O (centres unmarked),,fpvB mutant,,,25 µg/mL
CC[C@H](C)[C@H](N)C(=O)N[C@@H](CC(C)C)C(=O)NCC(=O)N[C@H](CCCNC(=N)N)C(=O)N[C@H](C(=O)N[C@@H](Cc1c[nH]c2ccccc12)C(=O)N[C@@H](CCCCN)C(=O)NCC(=O)N[C@H](C(=O)N[C@@H](CCCCN)C(=O)N[C@@H](CC(=O)O)C(=O)N[C@H](C(=O)N[C@@H](CC(C)C)C(N)=O)[C@@H](C)CC)[C@@H](C)CC)[C@@H](C)CC,broth microdilution,"ATCC BAA-427, Mueller-Hinton broth","16 h, 37 °C",,25 µM

# Some of these lines once more:
Compound,assay,system,conditions,how to read,MIC
CC[C@H](C)[C@H](NC(=O)CNC(=O)[C@H](CC(=O)O)NC(=O)[C@H](CCCNC(=N)N)NC(=O)[C@@H](NC(=O)[C@H](CC(N)=O)NC(=O)[C@H](CCCNC(=N)N)NC(=O)CNC(=O)[C@@H](NC(=O)[C@H](CCCCN)NC(=O)[C@H](CCCNC(=N)N)NC(=O)[C@@H](NC(=O)[C@H](CCCCN)NC(=O)[C@H](CCCCN)NC(=O)[C@H](Cc1ccccc1)NC(=O)[C@@H](NC(=O)[C@H](CCCCN)NC(=O)[C@H](Cc1c[nH]c2ccccc12)NC(=O)[C@@H](N)CCCNC(=N)N)[C@@H](C)CC)[C@@H](C)CC)C(C)C)C(C)C)C(=O)N[C@H](C(=O)N[C@@H](CCCCN)C(=O)N[C@@H](C)C(=O)NCC(=O)N1CCC[C@H]1C(=O)N[C@@H](C)C(=O)N[C@H](C(=O)N[C@@H](C)C(=O)N[C@H](C(=O)N[C@H](C(=O)NCC(=O)N[C@@H](CCC(N)=O)C(=O)N[C@@H](C)C(=O)N[C@@H](C)C(=O)N[C@H](C(=O)N[C@H](C(=O)N[C@H](C(=O)N[C@@H](CCCCN)C(N)=O)C(C)C)C(C)C)[C@@H](C)O)C(C)C)C(C)C)C(C)C)[C@@H](C)CC,,"KCCM 11328, Mueller-Hinton broth","16 h, 37 °C",growth inhibition over 99%,2 µM
CC(C)C[C@H](NC(=O)[C@@H](NC(=O)[C@H](CCCNC(=N)N)NC(=O)[C@H](CCC(N)=O)NC(=O)[C@H](Cc1ccccc1)NC(=O)[C@H](Cc1ccc(O)cc1)NC(=O)[C@H](CC(N)=O)NC(=O)[C@H](Cc1c[nH]c2ccccc12)NC(=O)[C@@H](NC(=O)[C@H](CCCNC(=N)N)NC(=O)[C@H](CCCCN)NC(=O)[C@@H](N)Cc1ccccc1)C(C)C)C(C)C)C(=O)N[C@H](C(=O)N[C@@H](CCCCN)C(=O)N[C@@H](CCCCN)C(N)=O)C(C)C,broth dilution,ATCC 27853,,,100 µM
